Measured values pooled from the literature.
Parts stem from different laboratories: compare values within a part only.
Sequence of UniProt P29320 (whole entry, looked up): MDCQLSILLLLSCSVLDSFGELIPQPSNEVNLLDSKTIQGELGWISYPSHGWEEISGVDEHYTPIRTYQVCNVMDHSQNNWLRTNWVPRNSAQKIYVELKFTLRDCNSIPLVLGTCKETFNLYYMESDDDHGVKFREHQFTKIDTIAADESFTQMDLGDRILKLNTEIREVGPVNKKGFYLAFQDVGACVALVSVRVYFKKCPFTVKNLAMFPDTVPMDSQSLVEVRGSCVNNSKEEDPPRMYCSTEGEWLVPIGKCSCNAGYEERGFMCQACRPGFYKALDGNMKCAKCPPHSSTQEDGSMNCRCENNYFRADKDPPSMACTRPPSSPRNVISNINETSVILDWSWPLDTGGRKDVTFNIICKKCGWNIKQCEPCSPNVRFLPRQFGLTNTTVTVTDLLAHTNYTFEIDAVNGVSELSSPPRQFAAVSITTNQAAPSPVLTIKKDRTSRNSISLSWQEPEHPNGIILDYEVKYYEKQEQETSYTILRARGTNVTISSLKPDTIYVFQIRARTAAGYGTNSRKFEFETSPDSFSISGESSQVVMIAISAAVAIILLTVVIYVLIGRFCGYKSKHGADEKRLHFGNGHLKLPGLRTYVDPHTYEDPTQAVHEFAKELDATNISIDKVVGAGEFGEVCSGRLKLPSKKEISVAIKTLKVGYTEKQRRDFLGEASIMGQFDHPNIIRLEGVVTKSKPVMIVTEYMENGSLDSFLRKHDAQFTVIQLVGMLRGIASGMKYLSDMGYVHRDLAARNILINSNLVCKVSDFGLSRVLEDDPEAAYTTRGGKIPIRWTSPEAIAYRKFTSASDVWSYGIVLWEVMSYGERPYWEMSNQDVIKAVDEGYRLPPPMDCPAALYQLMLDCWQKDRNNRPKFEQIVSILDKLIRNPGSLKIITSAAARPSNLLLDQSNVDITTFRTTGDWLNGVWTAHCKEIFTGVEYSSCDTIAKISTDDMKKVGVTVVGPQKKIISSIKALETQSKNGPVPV
Sequence of UniProt P21127 (whole entry, looked up): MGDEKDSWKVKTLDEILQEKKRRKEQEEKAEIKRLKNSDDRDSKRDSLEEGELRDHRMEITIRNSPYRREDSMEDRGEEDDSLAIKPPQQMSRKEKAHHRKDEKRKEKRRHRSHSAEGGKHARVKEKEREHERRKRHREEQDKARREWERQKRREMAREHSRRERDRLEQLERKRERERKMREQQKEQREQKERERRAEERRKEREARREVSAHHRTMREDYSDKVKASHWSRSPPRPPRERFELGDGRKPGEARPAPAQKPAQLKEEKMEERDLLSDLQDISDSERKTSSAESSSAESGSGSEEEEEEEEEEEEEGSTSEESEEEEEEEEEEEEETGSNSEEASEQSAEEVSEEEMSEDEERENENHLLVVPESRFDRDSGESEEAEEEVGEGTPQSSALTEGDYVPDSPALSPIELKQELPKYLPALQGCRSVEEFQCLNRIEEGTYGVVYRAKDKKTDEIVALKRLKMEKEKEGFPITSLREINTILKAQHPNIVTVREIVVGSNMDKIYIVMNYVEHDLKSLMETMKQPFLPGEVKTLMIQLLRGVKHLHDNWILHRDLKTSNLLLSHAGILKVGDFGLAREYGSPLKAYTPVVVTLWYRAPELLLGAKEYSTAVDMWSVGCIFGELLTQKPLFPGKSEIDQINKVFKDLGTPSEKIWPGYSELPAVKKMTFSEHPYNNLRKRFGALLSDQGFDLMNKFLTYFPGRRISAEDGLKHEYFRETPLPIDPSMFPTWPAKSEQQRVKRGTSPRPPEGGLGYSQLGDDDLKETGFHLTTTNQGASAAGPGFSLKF
Sequence of UniProt O75676 (whole entry, looked up): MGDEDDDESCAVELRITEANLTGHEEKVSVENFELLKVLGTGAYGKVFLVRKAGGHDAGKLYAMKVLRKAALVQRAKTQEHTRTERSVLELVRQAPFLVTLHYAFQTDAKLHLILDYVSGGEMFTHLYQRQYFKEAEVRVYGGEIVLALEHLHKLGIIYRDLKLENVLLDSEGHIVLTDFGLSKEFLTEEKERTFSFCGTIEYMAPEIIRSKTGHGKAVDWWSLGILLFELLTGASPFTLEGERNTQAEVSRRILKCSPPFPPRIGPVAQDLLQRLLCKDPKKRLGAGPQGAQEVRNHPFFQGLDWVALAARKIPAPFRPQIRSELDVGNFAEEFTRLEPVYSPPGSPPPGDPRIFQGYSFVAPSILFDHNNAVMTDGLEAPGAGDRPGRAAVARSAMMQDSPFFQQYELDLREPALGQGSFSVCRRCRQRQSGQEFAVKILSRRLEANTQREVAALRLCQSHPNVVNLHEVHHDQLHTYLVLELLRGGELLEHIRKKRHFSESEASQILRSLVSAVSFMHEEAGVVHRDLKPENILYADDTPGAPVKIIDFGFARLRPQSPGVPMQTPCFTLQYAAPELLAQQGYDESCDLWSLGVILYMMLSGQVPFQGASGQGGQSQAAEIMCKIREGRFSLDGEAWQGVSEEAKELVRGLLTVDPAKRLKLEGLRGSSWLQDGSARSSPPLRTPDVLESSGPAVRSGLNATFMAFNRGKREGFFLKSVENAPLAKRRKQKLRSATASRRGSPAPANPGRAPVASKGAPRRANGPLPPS
Sequence of UniProt Q99558 (whole entry, looked up): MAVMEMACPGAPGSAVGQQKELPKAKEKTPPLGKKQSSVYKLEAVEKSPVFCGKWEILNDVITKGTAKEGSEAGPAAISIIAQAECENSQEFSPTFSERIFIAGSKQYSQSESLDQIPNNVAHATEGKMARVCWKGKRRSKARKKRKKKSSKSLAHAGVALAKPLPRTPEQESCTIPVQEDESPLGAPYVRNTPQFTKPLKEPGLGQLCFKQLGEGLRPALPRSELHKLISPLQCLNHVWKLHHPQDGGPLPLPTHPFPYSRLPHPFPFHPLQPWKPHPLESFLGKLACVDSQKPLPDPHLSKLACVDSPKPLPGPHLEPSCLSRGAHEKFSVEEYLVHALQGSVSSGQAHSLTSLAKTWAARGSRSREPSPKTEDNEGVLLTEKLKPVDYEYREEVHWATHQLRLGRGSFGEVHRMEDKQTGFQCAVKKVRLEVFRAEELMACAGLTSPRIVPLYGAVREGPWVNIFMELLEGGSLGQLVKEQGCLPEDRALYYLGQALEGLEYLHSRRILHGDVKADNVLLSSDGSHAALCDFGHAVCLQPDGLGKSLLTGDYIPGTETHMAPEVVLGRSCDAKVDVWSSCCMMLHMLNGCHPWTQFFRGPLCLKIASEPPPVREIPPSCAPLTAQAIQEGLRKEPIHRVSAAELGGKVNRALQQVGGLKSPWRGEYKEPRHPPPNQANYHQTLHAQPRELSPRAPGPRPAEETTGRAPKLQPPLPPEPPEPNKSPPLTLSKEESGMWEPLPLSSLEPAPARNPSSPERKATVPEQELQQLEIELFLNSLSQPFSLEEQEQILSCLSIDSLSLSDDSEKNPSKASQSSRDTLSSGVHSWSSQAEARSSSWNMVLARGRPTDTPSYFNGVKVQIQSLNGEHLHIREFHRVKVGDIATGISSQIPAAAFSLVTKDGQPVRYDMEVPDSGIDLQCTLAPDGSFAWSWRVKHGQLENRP
Sequence of UniProt P36897 (whole entry, looked up): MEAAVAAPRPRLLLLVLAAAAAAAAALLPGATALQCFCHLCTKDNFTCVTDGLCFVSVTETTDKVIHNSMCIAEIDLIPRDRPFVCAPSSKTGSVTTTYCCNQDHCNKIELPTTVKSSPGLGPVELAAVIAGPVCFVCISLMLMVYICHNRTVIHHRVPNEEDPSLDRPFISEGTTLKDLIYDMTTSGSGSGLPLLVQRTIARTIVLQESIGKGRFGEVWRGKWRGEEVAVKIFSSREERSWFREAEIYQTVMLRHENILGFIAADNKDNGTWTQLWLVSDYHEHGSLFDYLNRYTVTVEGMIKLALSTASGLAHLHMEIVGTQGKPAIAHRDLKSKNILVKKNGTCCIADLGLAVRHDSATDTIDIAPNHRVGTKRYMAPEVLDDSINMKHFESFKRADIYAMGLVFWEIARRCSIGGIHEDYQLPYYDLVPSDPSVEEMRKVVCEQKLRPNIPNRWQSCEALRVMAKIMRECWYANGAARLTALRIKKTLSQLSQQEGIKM
Sequence of UniProt P11802 (whole entry, looked up): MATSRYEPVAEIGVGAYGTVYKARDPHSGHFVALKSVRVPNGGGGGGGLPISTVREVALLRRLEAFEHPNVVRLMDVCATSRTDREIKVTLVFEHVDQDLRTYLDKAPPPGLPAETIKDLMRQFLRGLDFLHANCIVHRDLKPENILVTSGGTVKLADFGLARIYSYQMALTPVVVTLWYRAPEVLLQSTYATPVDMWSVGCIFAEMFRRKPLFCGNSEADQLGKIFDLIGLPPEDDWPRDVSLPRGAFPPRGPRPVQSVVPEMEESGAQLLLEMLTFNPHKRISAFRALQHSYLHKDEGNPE

Series 1 — read-out: enzyme activity; mode: inhibitor; concentration: 0.5 µM; relative to: control; measurement: remaining activity
Target: Dual specificity mitogen-activated protein kinase kinase 1 (MAP2K1, Homo sapiens, UniProt Q02750)
COc1ccc(OC)c2c(=S)c3ccccc3[nH]c12: 91.7%
O=C1NC(=O)C(c2cn(CCCO)c3ncccc23)=C1c1cnccn1: 106%
O=C(CCCc1ccc(-c2ccccc2F)cc1)Nc1ccc(O)cc1: 104%
CN(C)c1ccc(C=C2C(=O)Nc3ccccc32)cc1: 97.8%
COc1ccc(C(=O)Nc2sc3c(c2C(N)=O)CCCC3)cc1OC: 99.1%
COc1cc2nccc(Oc3ccc(NC(=S)NC(=O)c4ccccc4C)cc3)c2cc1OC: 88.3%
Nc1ncnc2n[nH]c(Nc3ccc(F)cc3)c12: 101%
Cc1cccc(-c2[nH]c(C(C)(C)C)nc2-c2ccc3c(c2)OCO3)n1: 93.3%
O=C(Nc1cccc(Nc2cc(Nc3cccc(C(F)(F)F)c3)ncn2)c1)C1CC1: 98.9%
Cc1ccc(Nc2nccc(N(C)c3ccc4c(C)n(C)nc4c3)n2)cc1S(N)(=O)=O: 106%
N#CC(C#N)=C(N)/C(C#N)=C/c1ccc(O)cc1: 93.7%
Nc1[nH]nc2nc3ccccc3nc12: 98.8%
COc1cc2ncnc(Nc3ccc(Oc4ccccc4)cc3)c2cc1OC: 85.9%

Series 2 — method: RNAcompete; form: RNA; medium: in vitro; concentration: 20 nM; notes: 7-mer, probes averaged, single round; relative to: mean of 7-mers; direction: higher = stronger binding; measurement: 7-mer Z-score
Target: PABPC1L2, full length, GST fusion (mouse, UniProt A0ABA7IW68)
Target sequence (chain): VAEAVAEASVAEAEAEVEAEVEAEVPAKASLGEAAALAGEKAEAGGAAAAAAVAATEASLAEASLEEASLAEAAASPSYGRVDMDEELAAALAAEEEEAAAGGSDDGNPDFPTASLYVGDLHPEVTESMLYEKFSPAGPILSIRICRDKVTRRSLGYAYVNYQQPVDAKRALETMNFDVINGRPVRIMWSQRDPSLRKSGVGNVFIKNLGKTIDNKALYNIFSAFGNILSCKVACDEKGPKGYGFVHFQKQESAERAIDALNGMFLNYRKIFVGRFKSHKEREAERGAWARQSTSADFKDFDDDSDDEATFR
CUACCGA: -0.0826
AGGUGCA: 0.193
GUAACUC: -0.215
GAGGGAU: 0.187
CAAAACU: 0.948
GAAUAUC: -0.231
GGUCCUU: -0.186
UACCUUU: -0.298

Series 3 — method: protein-binding microarray; form: double-stranded DNA, one strand shown; medium: in vitro; concentration: 0.8 µM; notes: whole 60-bp probe, no competitor; direction: higher = stronger binding; measurement: fluorescence intensity; shared flanks, not repeated: … GTCTTGATTCGCTTGACGCTGCTG
Target: Centromere-binding protein 1, full length, N-terminal tag (CBF1, Saccharomyces cerevisiae, UniProt P17106, residues 1-351)
Sequence of UniProt P17106 (whole entry, looked up): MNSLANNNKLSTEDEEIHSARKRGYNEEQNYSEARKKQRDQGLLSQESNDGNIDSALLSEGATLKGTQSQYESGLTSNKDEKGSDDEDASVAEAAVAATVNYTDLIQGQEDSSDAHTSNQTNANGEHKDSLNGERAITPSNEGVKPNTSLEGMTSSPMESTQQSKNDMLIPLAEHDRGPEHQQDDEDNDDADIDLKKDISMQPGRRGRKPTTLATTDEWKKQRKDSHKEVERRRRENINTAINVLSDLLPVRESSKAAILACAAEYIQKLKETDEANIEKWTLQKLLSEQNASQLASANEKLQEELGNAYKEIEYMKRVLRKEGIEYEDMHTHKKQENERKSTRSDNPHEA
CTACACAAAGCATGTCACGTCATGTAGCTGATCTTC: 785 a.u.
GAATGTTCAAAGAATCTCGTGGTTGTTCTGTTTTAG: 657 a.u.
GAAGCAGACATGTTGTTCGTGATGATCTTTCTTTAG: 529 a.u.
CTAAGAGGTTATAGTCACGTGATGCAGATTACCTTC: 43100 a.u.
CTAGGGAGACCTCGACGTGTGACTTGAATTAAGTTC: 1050 a.u.
CTAGCGAATCCACATTTTCACGTGAGCTTGCAATTC: 5180 a.u.
GAATTGACAAAGGGTGCCGTCACGGTCAGTGATTAG: 551 a.u.
GAAACTGCCCACGAGCACATGGGGTGAGTTATATAG: 855 a.u.

Series 4 — concentration: 0.1 µM; measurement: remaining binding
SMILES: CS(=O)(=O)N1CCCC(NC(=O)[C@H](CCC2CCCCC2)NC(=O)c2ccc(CNc3ncnc4c3nnn4-c3ccccc3)cc2)C1 (some centres unmarked)
PRKG2 (Homo sapiens, UniProt Q13237); cell-free assay, competition with immobilised ligand: 79%
Tyrosine-protein kinase ABL1, non-phosphorylated (ABL1, Homo sapiens, UniProt P00519); cell-free assay, competition with immobilised ligand: 88%
CDK4 (Homo sapiens, UniProt P11802); cell-free assay, competition with immobilised ligand: 91%
HUNK (Homo sapiens, UniProt P57058); cell-free assay, competition with immobilised ligand: 100%
EPHA3 (Homo sapiens, UniProt P29320); cell-free assay, competition with immobilised ligand: 75%
CDK11A (Homo sapiens, UniProt Q9UQ88); binding, competition with immobilised ligand: 87%
MAP2K1 (Homo sapiens, UniProt Q02750); cell-free assay, competition with immobilised ligand: 100%
Ribosomal protein S6 kinase alpha-4, N-terminal kinase domain (RPS6KA4, Homo sapiens, UniProt O75676); cell-free assay, competition with immobilised ligand: 86%
TGFBR1 (Homo sapiens, UniProt P36897); cell-free assay, competition with immobilised ligand: 100%
MAP3K14 (Homo sapiens, UniProt Q99558); cell-free assay, competition with immobilised ligand: 83%
AAK1 (Homo sapiens, UniProt Q2M2I8); binding: 90%
CDK11B (Homo sapiens, UniProt P21127); cell-free assay, competition with immobilised ligand: 100%
